Assay results gathered from unrelated publications.
“And” joins repeats or separate records; there may be more than shown. ± marks the error that the study gave. In brackets after ≈: the same amount, converted by molar mass.

| Structure (SMILES) | tested on | test | system | conditions | scale | endpoint | value |
| --- | --- | --- | --- | --- | --- | --- | --- |
| CCCSC(SCCC)c1ccc(OCCNS(=O)(=O)c2cccc(Br)c2)c(Cl)c1 | Tobacco mosaic virus | inactivation activity | plant in vivo | – | – | EC50 | 2003.5 ± 1.7 µg/mL (≈ 3620 µM) |
| COc1ccccc1-c1n[nH]c2nc(NC3CCN(C(=O)Cc4ccc(F)cc4F)CC3)ncc12 | – | bead binding, competition bead pull-down, refers to: LMJF.34.3670 | Leishmania donovani extract | 10 µM | reference: vehicle | relative abundance | 0.91 |
| Cc1cc(C(=O)Nc2nc3cccc(C)c3n2[C@H]2CCCCN(C(=O)/C=C/CN(C)C)C2)ccn1 | Trypanosoma brucei brucei | – | 2T1 wild type | 0.8333 µM | – | survival | -0.0475% and -0.0536% and -0.0469% and -0.11% and -0.06% and -0.09% |
| CC(C)CC(C(=O)N1CC2(CC1C#N)C(=O)Nc1ccccc12)N(C)C(=O)c1cc2c(F)cc(F)c(F)c2[nH]1 (stereo not shown) | Human coronavirus 229E | cytopathic effect | MRC5 | 99.5 nM | – | inhibition | 109% |
| O=C1NC2(CC2)COc2ncc(F)cc2[C@H]2COCCN2c2ccn3ncc1c3n2 | – | – | Sprague-Dawley rat, male, heart | oral, 2.5 mg/kg/day, 4 weeks dosing, end of recovery | – | organ-to-body weight ratio | 0.315 ± 0.013% |
| CC(C)CC(O)(CC(C)C)c1cn(C(=O)N2CCCC2)nn1 | mouse T-cells | N-terminal labelling enrichment, refers to: Scye1 N-terminal peptides | – | 1 nM, 6 h, protein median | reference: DMSO | SILAC ratio | 0.81 |
| COc1cc(C(SC(C)C)SC(C)C)ccc1OCCNS(=O)(=O)c1ccc(Br)cc1 | tobacco mosaic virus | curative activity | in vivo plant | – | – | EC50 | 183 ± 3.2 µg/mL (≈ 334 µM) |
| CN[C@@H]1[C@H](O)[C@H](NC)[C@H]2O[C@]3(O)[C@H](O[C@@H]2[C@H]1O)O[C@H](C)C[C@H]3NC(=O)Cc1ccccn1 | Proteus vulgaris | microbial growth, broth dilution | ATCC33420 | – | – | MIC | > 200 µg/mL |
| O=C(O)c1ccc(-c2nc(-c3ccccc3Cl)c3sccn23)cc1 | – | – | C57BL/6 mice, 5-fluorouracil treated | dose not given, day 3 | reference: RBC | reticulocytes | 1.49% and 1.35% and 1.46% and 1.28% |
| Cc1cc(Oc2nc(N3CC[C@@H](c4ccncc4)C3)ncc2F)[nH]n1 | SAOS-2 | cell proliferation | bone cancer | – | – | IC50 | 95.5 µM |
| CC(O)CN.O=C(O)C(Cl)Cl | Eclipta prostrata | – | – | 15 mg/mL, 21 days, pre-emergence, greenhouse | – | herbicidal inhibition | 0% |
| CC(C)SC(SC(C)C)c1ccc(OCCNS(=O)(=O)c2cccc(Br)c2)c(Cl)c1 | Tobacco mosaic virus | curative activity | plant in vivo | – | – | EC50 | 432.4 ± 3.8 µg/mL (≈ 782 µM) |
| CC(C)C[C@H](NC(=O)[C@H](CC(=O)O)NC(=O)CNC(=O)[C@@H](N)CCCNC(=N)N)C(=O)N[C@@H](C)C(=O)N[C@H](C(=O)N[C@@H](CC(C)C)C(=O)N[C@@H](CCCNC(=N)N)C(=O)N[C@@H](CCC(N)=O)C(=O)N[C@@H](CC(C)C)C(=O)N[C@@H](C)C(=O)N[C@@H](CCC(N)=O)C(=O)N[C@@H](CCC(=O)O)C(=O)N[C@@H](CC(=O)O)C(=O)NCC(=O)N[C@H](C(=O)N[C@H](C(=O)NCC(=O)N[C@H](C(=O)N[C@@H](CCCNC(=N)N)C(=O)NCCOCCOCCOCCOCCOCCOCCOCCOCCOCCOCCOCCOCCC(=O)N[C@@H](CS)C(N)=O)C(C)C)C(C)C)C(C)C)[C@@H](C)O | HCC95 | phage binding | – | – | reference: targeting over control phage | selectivity ratio | 1.8 ± 0.74 |
| CCN(CC)Cc1cc(Nc2c(C3CCCC3)c(C)nc3cc(Cl)ccc23)ccc1O | Dengue virus type 2 | viral replication, Rluc reporter replicon | BHK-21 DENV2 replicon cells | 50 µM, 24 h | – | inhibition | 100% |
| CC(C)[C@@H]1NC(=O)[C@H](C)NC(=O)[C@H](Cc2ccc(O)cc2)NC(=O)[C@H](CC(=O)O)NC(=O)[C@@H](NC(=O)[C@H](CCCCN)NC(=O)[C@H](CC(=O)O)NC(=O)[C@H](Cc2c[nH]cn2)NC(=O)[C@@H](NC(=O)[C@H](Cc2ccccc2)NC(=O)[C@@H](N)Cc2ccccc2)C(C)C)CCSSCC[C@@H](C(=O)N[C@@H](CCCCN)C(=O)NCC(=O)N[C@@H](CO)C(=O)N[C@@H](CCCCNC(=O)CCCC[C@@H]2SC[C@@H]3NC(=O)N[C@@H]32)C(N)=O)NC(=O)[C@H](CCC(N)=O)NC(=O)[C@H](Cc2c[nH]cn2)NC1=O | anti-HA antibody 12CA5, mouse | biolayer interferometry | – | 30 °C | – | kon | 23000 M⁻¹ s⁻¹ |
| CC1CCC2C(C)C(OC(=O)CCC(=O)N3CCC(Nc4ccc(S(=O)(=O)NC(=O)c5ccc(N6CCN(CC7=C(c8ccc(Cl)cc8)CC(C)(C)CC7)CC6)cc5Oc5cnc6[nH]ccc6c5)cc4[N+](=O)[O-])CC3)OC3OC4(C)CCC1C32OO4 (stereo not shown) | THP-1 | annexin V/PI flow cytometry, refers to: annexin V+/PI- | – | 0.8 µM, 24 h | – | early apoptotic cells | 54% |
| COc1ccccc1-c1n[nH]c2nc(N[C@H]3CC[C@H](NS(=O)(=O)CC(C)C)CC3)ncc12 | – | bead binding, competition bead pull-down, refers to: LINJ.26.1960 | Leishmania donovani extract | 10 µM | reference: vehicle | relative abundance | 0.94 |
| CN1C(=O)C(C2C3=C(CC(C)(C)CC3=O)Oc3ccc([N+](=O)[O-])cc32)C(=O)N(C)C1=O (stereo not shown) | 3T3-L1 preadipocytes | adipogenesis, Oil Red O staining | – | IC20, 14 days, single replicate | – | lipid content | 0.647 OD492 |
| CC(C)(C)C(=O)OCOP(=O)(OCOC(=O)C(C)(C)C)C1CCCN(O)C1=O (stereo not shown) | TK-10 | – | – | – | – | TGI | 8.05 µM |

Excerpt of the above:
| Structure (SMILES) | tested on | test | system | conditions | scale | endpoint | value |
| --- | --- | --- | --- | --- | --- | --- | --- |
| CCN(CC)Cc1cc(Nc2c(C3CCCC3)c(C)nc3cc(Cl)ccc23)ccc1O | Dengue virus type 2 | viral replication, Rluc reporter replicon | BHK-21 DENV2 replicon cells | 50 µM, 24 h | – | inhibition | 100% |
| Cc1cc(C(=O)Nc2nc3cccc(C)c3n2[C@H]2CCCCN(C(=O)/C=C/CN(C)C)C2)ccn1 | Trypanosoma brucei brucei | – | 2T1 wild type | 0.8333 µM | – | survival | -0.0475% and -0.0536% and -0.0469% and -0.11% and -0.06% and -0.09% |
| COc1ccccc1-c1n[nH]c2nc(NC3CCN(C(=O)Cc4ccc(F)cc4F)CC3)ncc12 | – | bead binding, competition bead pull-down, refers to: LMJF.34.3670 | Leishmania donovani extract | 10 µM | reference: vehicle | relative abundance | 0.91 |
